Results collected from several papers.
Parts stem from different laboratories: compare values within a part only.

Block 1 — technique: protein binding microarray; molecule type: double-stranded DNA, one strand shown; sample: in vitro; tested at: not given; baseline: not given; direction: higher = stronger binding; endpoint: E-score
Target: Histone acetyltransferase KAT6A, winged helix 2, GST fusion (KAT6A, Homo sapiens, UniProt Q92794, residues 85-181)
Notes: 8-mer, flanks averaged, mean of 2 arrays, mostly near background
Construct (chain): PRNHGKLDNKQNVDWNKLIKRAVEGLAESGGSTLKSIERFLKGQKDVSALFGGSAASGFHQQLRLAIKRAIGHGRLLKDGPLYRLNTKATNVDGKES
AACATTGT: -0.23
CGTCGATC: 0.0706
CAGAATGG: 0.0188
ACGGAGGA: -0.137
CTACCCAG: -0.14

Block 2 — technique: protein-binding microarray; molecule type: double-stranded DNA, one strand shown; sample: in vitro; tested at: 940 nM top; notes: 60-bp whole probe; added: salmon DNA 0.4 mg/ml; baseline: random background probes; direction: higher = stronger binding; endpoint: fitted relative affinity
Target: Interferon regulatory factor 5, full length, phosphomimetic (IRF5, Homo sapiens, UniProt Q13568-2, residues 1-514, S451D/S453D/S456D/S462D)
GCCTAGCACGACGAACTCAGACTGGAGACGTGCTAGGTCTTGATTCGCTTGACGCTGCTG: -0.557 z-score
GCCTAGCACGACGAGATCAGACTGGAGACGTGCTAGGTCTTGATTCGCTTGACGCTGCTG: -0.243 z-score
GCCTAGCACGACGATATCAGTTCCGAGACGTGCTAGGTCTTGATTCGCTTGACGCTGCTG: 0.408 z-score

Block 3 — technique: RNAcompete; molecule type: RNA; sample: in vitro; tested at: 20 nM; notes: 7-mer, probes averaged, single round; baseline: mean of 7-mers; direction: higher = stronger binding; endpoint: 7-mer Z-score
Target: PABPC1L2, full length, GST fusion (mouse, UniProt A0ABA7IW68)
Construct (chain): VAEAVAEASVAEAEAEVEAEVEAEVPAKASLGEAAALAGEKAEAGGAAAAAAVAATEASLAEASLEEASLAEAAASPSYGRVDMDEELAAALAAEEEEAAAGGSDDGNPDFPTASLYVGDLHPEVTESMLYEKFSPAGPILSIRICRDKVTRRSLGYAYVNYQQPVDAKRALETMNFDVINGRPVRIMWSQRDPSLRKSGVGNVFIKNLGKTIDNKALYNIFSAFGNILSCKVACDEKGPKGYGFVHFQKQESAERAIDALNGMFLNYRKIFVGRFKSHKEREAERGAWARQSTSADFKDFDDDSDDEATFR
UUACGUA: -0.173
GUACGGA: 0.173
GGCUUUU: -0.0881
ACGGGAA: 0.265
UGAGGCG: -0.0138
ACGAACG: -0.139
GGCGGCC: -0.26
AUUUCAU: -0.202
UAGCAUA: -0.0228

Other studies, line by line
PhoQ, residues 284 288 289 292 302 303 AGCYAI
fold induction (PhoP, residues 12 14 15 18 19 LHSVQ (Escherichia coli, UniProt P23836); Sort-seq, refers to: YFP reporter; E. coli; PhoQ-PhoP variant library, added: 10 µM Mg2+; baseline: high Mg2+ state, higher = stronger signaling): 1.09

A few entries again (block 3):
GGCGGCC: -0.26
AUUUCAU: -0.202
UAGCAUA: -0.0228
